Measurements of several laboratories.
Each line is one published result; not all experiments were run side by side. ± gives the spread as reported.

SMILES | target or system | assay | test system | conditions | scale | quantity | value
CC(C)c1cnc(-c2cc(Cl)ccc2F)cc1Nc1ccncc1C(=O)NC(CO)CO | – | refers to: pSMAD2 | MC-38 tumour-bearing mouse, tumour | 100 mg/kg, 0 to 8 h average | relative to: vehicle | inhibition | 64%
O=C(O)c1ccc(/C=C2\SC(=S)N(Cc3cccc(C(F)(F)F)c3)C2=O)cc1 | – | – | mouse, high-fat diet, adipose tissue | 2.5 mg/kg once daily, 6 weeks | – | caspase-1 cleavage | decreased
COc1cc2c(cc1OC)C(c1ccc(F)cc1F)N(CCCOc1ccc(CCC(=O)O)cc1)CC2 (stereo not drawn) | – | refers to: triglyceride, total cholesterol, free fatty acids | diet-induced obese C57BL/6J mice | oral, 50 mg/kg, 38 days | relative to: vehicle | hepatic lipid levels | decreased
O=C1NCC(c2cccc(C(F)(F)F)c2)C1C(=O)Nc1ccccc1F (stereo not drawn) | – | – | whole plants | concentration not given | – | herbicidal activity | active
Brc1ccc(Nc2nc(NN=Cc3c[nH]c4ccccc34)nc(N3CCOCC3)n2)cc1 | – | western blot | mouse A549 xenograft, tumour tissue | intraperitoneal, 70 mg/kg single dose | – | LC3-II level | increased
Cc1c(C)c(C)[c-](C)c1C.O=C([N-]c1ccccc1)c1ccccn1.[Cl-].[Ir+3] | – | 4-hydroxynonenal reduction | PBS/DMSO | 24 h, 37 °C, 1 mol% catalyst, together with: excess sodium formate | – | yield | 86%
COc1ccc2c(c1OC)C(C(Cl)(Cl)Cl)N1CCc3cc4c(cc3C1=C2)OCO4 (stereo not drawn) | – | – | rat, STZ-induced diabetic, serum | oral, 12 mg/kg, day 28 | – | AST activity | 62.1 ± 2.01 U/L
O=Cc1c(O)ccc2ccccc12 | HUVEC | RNA sequencing, refers to: LRRC17 | – | 75 µM, 24 h | relative to: DMSO | log2 fold change | -4.07
CC(=O)C12NC(C)(C)CC1(C)C(=O)C1=C2c2c(c3c4n2C(C)(C)CC2=C4C4(CC(C)(C)NC(C)(C4)C2=O)CC3(C)C)C(=O)C(C)(C)N1 (single isomer, unassigned; (+)) | – | acetic acid-induced writhing | mouse | intraperitoneal, 0.04 mg/kg, 0.5 h, writhes counted over 30 min | – | inhibition | 38.4 ± 2.6%
COc1ccc2occ(/C=C/C(=O)N3CCN(C(=S)SCCCN(C)C)CC3)c(=O)c2c1 | tomato spotted wilt virus | viral infection, half-leaf method | Nicotiana glutinosa | 500 µg/mL | – | inactivation effect | 74.2%
Nn1c(S)nnc1CCN(c1ccc(Cl)cc1)S(=O)(=O)c1ccccc1 | – | analgesia | rat tail flick radiant heat | 200 mg/kg | – | protection | 96.5%
Cc1cc(O)c(C=O)c2c1C(=O)Oc1c(CO)c(O)c3c(c1O2)C(O)OC3=O (stereo not drawn) | – | copulatory behaviour test | rat, male, streptozotocin-induced diabetes | 10 mg/kg, day 63 | – | Intromission latency | 736 ± 34.5 s
C=C(c1ncc(C(=O)O)cn1)c1cc2c(cc1C)C(C)(C)CCC2(C)C | – | RNA sequencing, refers to: Sfrp5 | rat, brain | dose not given, 24 h | relative to: vehicle | log2 fold change | -0.2
C[N+](C)(CI)CCO | – | aggregometry | mouse platelet-rich plasma | 20 µM, together with: with or without ADP | – | platelet aggregation | no effect
Cc1cnc(C(=O)N[C@@H](Cc2cn(Cc3ccccc3)cn2)C(=O)N2CCC[C@H]2C(N)=O)cn1 | – | – | Swiss albino mice | iv, 10 µmol/kg, together with: pentobarbital 50 mg/kg ip | – | sleeping time | 51.1 ± 8.5 min
CCC1CC2C(C)=CC3C(=O)CCCC3C=CC(C)=CC2C(=O)O1 (stereo not drawn) | – | dot blot | 5XFAD transgenic mouse, cortex | oral, 30 mg/kg/day three times per week, 1 month | relative to: vehicle | soluble oligomeric Aβ reduction | 23%
COc1ccc(C2CC(c3ccc(C)cc3)=Nc3ccccc3S2)cc1OC (stereo not drawn) | – | – | Wistar rat, STZ-induced diabetes | oral, 20 mg/kg once daily, day 7 | – | body weight | 191 ± 4.39 g

SMILES | target or system | assay | test system | conditions | scale | quantity | value
O=C(O)c1ccc(-c2coc3ncc(-c4ccccc4)cc23)cc1Cl | – | [3H]-2-deoxyglucose uptake | mouse EDL muscle ex vivo | concentration not given, together with: muscle contraction | – | glucose uptake | inhibited
CCOP(=O)(CC(=O)Nc1ccc(S(=O)(=O)N(CC(N)=O)c2ccc(N(CC(N)=O)S(=O)(=O)c3ccc(OC)cc3)c3ccccc23)cc1)OCC | – | EMSA | APP/PS1 mice, hippocampus and frontal cortex | 40 mg/kg | – | Nrf2-ARE DNA binding | increased
COc1c2c(cc3oc(C)cc(=O)c13)O[C@H](C(C)(C)O[C@@H]1O[C@H](CO)[C@@H](O)[C@H](O)[C@H]1O)C2 | – | analgesic effect | Kunming mouse, female | oral, 4 mg/kg, 0 h, 55 °C, before dosing, 30 s cut-off | – | hot plate latency | 8.64 ± 1.6 s
N=C(N)NCCC[C@@H]1NC(=O)[C@H](Cc2c[nH]c3ccccc23)NC(=O)[C@@H](CC2CCCCC2)NC(=O)[C@@H]2CCCN2C(=O)[C@@H](NC(=O)CCc2ccccc2)CCCNC1=O | – | – | C57BL/6J mouse, plasma plasma | oral, 1 mg/kg single dose | – | MRT(0-last) | 37.7 min
CC/C=C\C/C=C\C/C=C\C/C=C\C/C=C\CCCCOC(CC)C(=O)O (stereo not drawn) | – | – | APOE*3Leiden.CETP mice, high-fat/cholesterol diet | dose not given, 20 weeks | relative to: control | hepatic bile acids | decreased
COc1ccc2c(c1)c(CC(=O)OCC(=O)OC(C)(C)C)c(C)n2C(=O)c1ccc(Cl)cc1 | – | hot plate test | BALB/c mice | 75 mg/kg, 60 min | – | latency of nociceptive response | 16.8 ± 2.11 s
CC(C)(C)C(=O)NNC(=O)/C=C\n1cnc(-c2cc(C(F)(F)F)cc(C(F)(F)F)c2)n1 | – | – | mice, MOG35-55 EAE | oral, 7.5 mg/kg, 12 days, from hindlimb paralysis | relative to: vehicle, decrease | cumulative disease score | 75 ± 4.32%
CCCCCCCCCCCCCCCC(=O)N[C@@H](CCCCN)C(=O)N[C@@H](CCCCN)C(=O)N[C@@H](CO)C(=O)N[C@@H](CCCNC(=N)N)C(=O)N[C@@H](C)C(=O)N[C@@H](CC(C)C)C(=O)N[C@@H](Cc1ccccc1)C(N)=O | – | – | guinea pig | intravenous infusion, above 0.05 mg/kg, 10 min infusion, maximum 60 min | relative to: vehicle | occlusion time increase | 4 fold
Cc1cc(=O)[nH]c2ccc(OCCCC(=O)N3CCCCC3)cc12 | – | – | rat, isolated spontaneously beating atria | 100 µM | relative to: baseline | contraction rate increase | 43 ± 11%
C=CC(=O)N1C[C@H](C)N(c2nc(OC[C@@]34CCCN3C[C@H](F)C4)nc3c(F)c(-c4ccc(F)c5sc(N)c(C#N)c45)c(C(F)(F)F)cc23)C[C@H]1C | – | refers to: pERK | mouse, MIA PaCa-2 xenograft tumour | – | – | IC50 | 61 nM
CCN(CC)CCCSC(=S)N1CCN(C(=O)/C=C/c2coc3cc(F)ccc3c2=O)CC1 | tomato spotted wilt virus | viral infection, half-leaf method | Nicotiana glutinosa | 500 µg/mL | – | inactivation effect | 58.2 ± 5.3%
C=C(c1ccc(C(=O)O)c(F)c1)c1cc2c(cc1C)C(C)(C)C=CC2(C)C | – | RNA sequencing, refers to: Upp1 | rat, brain | dose not given, 24 h | relative to: vehicle | log2 fold change | -0.33
[64Cu+2].c1ccc(CNCc2ccc(CN3CCCN4CCNCCCN(CC4)CC3)cc2)nc1 | CXCR4 | – | NOD/SCID mouse, U87 and U87-stb-CXCR4 xenografts, heart | iv, 120 min, ex vivo | – | tissue uptake | 1.56 ± 0.28 %ID/g
COc1ccc(C2CC(c3ccc(C)cc3)=Nc3ccccc3S2)cc1 (stereo not drawn) | – | – | Wistar rat, STZ-induced diabetes | oral, 10 mg/kg once daily, day 21 | – | body weight | 180 ± 4.76 g
COc1cc(CNC(=O)CCCC/C=C/C(C)C)ccc1O | – | – | male Sprague-Dawley rat, LAD occlusion-reperfusion | iv, 1.0 mg/kg, 30 min before ischemia, 30 min occlusion, 2 h reperfusion | relative to: area at risk | infarct size | 49 ± 2%
CC(=O)[O-].O.O.O.O.[Mn+2].[O-]c1ccc(Br)cc1C=NCCN1CCOCC1 | – | superoxide scavenging | – | 240 µM | – | inhibition | 53.8%
